Published values from different studies.
Numbered parts are unrelated; each lists some results of a single study.

Block 1
Target: RNA binding protein fox-1 homolog 2, RRM domain, GST-SBP tag (RBFOX2, Homo sapiens, UniProt O43251-10, residues 100-194)
Technique: RNA Bind-n-Seq
Form: RNA
Sample: in vitro
Concentration: 365 nM
Setting: natural RNA segment, single round, ends assumed
Relative to: no-protein control
Reading: higher = stronger binding
Target sequence (chain): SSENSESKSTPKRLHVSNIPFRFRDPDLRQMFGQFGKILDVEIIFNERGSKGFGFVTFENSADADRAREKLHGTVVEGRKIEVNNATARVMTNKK
Oligonucleotide	RBNS enrichment (R)
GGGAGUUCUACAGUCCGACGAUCGUACAACUUGCUUUUAGCAUGAUUAUUUUCCUAAAUAAAAAGACAAAGAAUUUACUUACUUUAUGUUAAUUACGGGCAUGAAGCAAAAGGUUUUCUUUAAAAAAAAAAAAUGGAAUUCUCGGGUGCCAA	2.42
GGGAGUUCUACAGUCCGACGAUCGUUGUAGCUGUCAACCCAUUGGUUGUCUUUAGAGAGUUAAUGUUGAAACAAGGAACUCUUGGUCAGACAAACGUGAUCAGCUGAAACACGUGUGCUUUUGUAGAGUUUAAUGGAAUUCUCGGGUGCCAA	0.437
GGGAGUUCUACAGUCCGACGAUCGGGGGAGCCGGGGCUCAGGGCCCCUGACUGCAUGGUGCAUGAGUGAUCUCAGCCUAGCGAUGCCGCUGGCCAGACCGUGACCAUGCUGCCAGUGUGCUCGCCAUGAGCUGUGGAAUUCUCGGGUGCCAA	2.62
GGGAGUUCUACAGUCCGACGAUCCUUGAUUGUUUCCAUACCACUCAAGCCUUUGCUUGAAGAACAUGCUCAAUAAAUGUUUCAUGACUGCAGCAAAACCUGGCACCAGGAGUUCUUCAUAUAAAACUCGAUUUUGGAAUUCUCGGGUGCCAA	0.188
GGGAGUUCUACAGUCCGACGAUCGAUGCAGCCCCAGAGGCUGGUGGCAGUUUCCUGUCCAUUGGUAGGUGACGGCCCCUGGCUCAGGCAGAGGGAGAUGGUUAGACUCUUGCAGGGCUAAAACUCUAAUUUGGUGGAAUUCUCGGGUGCCAA	0.772
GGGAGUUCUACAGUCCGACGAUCUCUUCAACUCUUGCCCCAUGUCUCCUUGGCAGCAGGAUGCUGGCAUCUGUGUAGUCCUCAUACUGUUUACUGAUAACCCACAAAUUCAUUUUCAUGGCAGACCUAAGCUCUGGAAUUCUCGGGUGCCAA	0.468
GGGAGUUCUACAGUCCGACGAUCCAAAAGAGGUUGGUAUGAUAAAGUGAUGGCUUUUUUCUUAUAUAAAUAGAAUGCAAAUCAAAGAUAUAACCAGUGUGAUUGAUUGCAAGUAGUCAAGUGUAACUAACUCCUGGAAUUCUCGGGUGCCAA	0.697
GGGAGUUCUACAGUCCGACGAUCAGCUUCAGGGACUCUUAGUCUGUCCUUCCCCACUUUUGGUCCCAACAUCCCUGGGAUGGUGUGCUGUCUGGGCACCACGGUCUCCAUCCUCACUCCUGAGAGAUUUCUGCUGGAAUUCUCGGGUGCCAA	0.602
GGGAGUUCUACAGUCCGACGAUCCCGGAAGGUGCCAGCAAUGAGACUGAGCGAGACUAGGGCUGGCACUUGGCUGCCCGCCUUCCCAGUGCCCCGGGACAUCAGAGGCAGGUGGGCAAGGGCUGCGGCUCUGCUGGAAUUCUCGGGUGCCAA	0.42
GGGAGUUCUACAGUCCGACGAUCUAGCCCCGAAUCACUUCAGCUCCCUUCCCUGCCUGGACCAUUCCCAGCUCCCUGCUCACUCUUCUCUCAGCCAAAGCCUCCAAAGGGACUAGAGAGAAGCCUCCUGCUCCUGGAAUUCUCGGGUGCCAA	0.529
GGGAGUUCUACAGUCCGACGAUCUGCGCUAGCCCCUGGCUGAGAGGAGAGAACCUGUCCUCUGCCGGUGCUCAGUCAAGUGAUGGCUCCCUGCCCUUCUGUGCUCCCAGCCUGCCUCCCCCAGGGCAGGUUGGUGGAAUUCUCGGGUGCCAA	0.262
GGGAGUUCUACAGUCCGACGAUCUUCUUGUCUGUAUUGGUUUUUGAUCACGGCCUGGUGUUGUGAUACUGGGAAGAGCAUUAGCCAAGAACUUGUCUCUUUGAUCUGUUUCGUUAAGCUGAACCAGUGUCUUUUGGAAUUCUCGGGUGCCAA	0.347

Block 2
Target: Fragile X messenger ribonucleoprotein 1, C-terminal low-complexity region (Fmr1, Mus musculus, UniProt P35922)
Technique: RNA Bind-n-Seq
Form: RNA
Sample: in vitro
Concentration: 200 nM
Setting: whole 134-nt RNA, ends assumed
Together with: 150 mM KCl
Relative to: input library
Reading: higher = stronger binding
Oligonucleotide	log2 enrichment
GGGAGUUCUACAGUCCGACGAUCUAACUUUAGAGGAGGAUCUGAUGGAUAUGGCAGUGGACGUGGAUAUGGGGAUGGCUAUAAUGGGUAUGGAGGAGGACCUGGAGGUGGCAAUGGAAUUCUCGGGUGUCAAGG	0.32
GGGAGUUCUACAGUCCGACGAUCCUGUGCUACACAUCGUAUGUACCGAAUCGGGGCCCCCCGGGCCCCCCGGGGCCCCCCGGGGAAAGUAUUAUGUUACGCCGUUCGGAUCUGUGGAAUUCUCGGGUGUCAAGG	-1.31
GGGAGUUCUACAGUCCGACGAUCAAGUCCUGUGCUACACAUCGUAUGUACCGAAUCGGUUUGGUUUUUGGAAAAAAAGGAAAGUAUUAUGUUACGCCGUUCGGAUCUGCACUUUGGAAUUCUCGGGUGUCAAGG	-0.792
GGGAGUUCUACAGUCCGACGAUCUCCUGUGCUACACAUCGUAUGUACCGAAUCAAAUUUUUUUAAACCCAAACCCCCCCAAAAAAGUAUUAUGUUACGCCGUUCGGAUCUGCAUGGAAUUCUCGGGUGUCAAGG	0.0158
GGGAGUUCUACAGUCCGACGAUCUCAAGUCCUGUGCUACACAUCGUAUGUACCGAAUCGGAAAGGAAAAAAAGGUGGAAAGUAUUAUGUUACGCCGUUCGGAUCUGCACUUCCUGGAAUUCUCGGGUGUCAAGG	-0.588
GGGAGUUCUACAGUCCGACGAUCCAAGUCCUGUGCUACACAUCGUAUGUACCGAAUCGGAAAGGAAAGGGGAAAGGGGAAAGUAUUAUGUUACGCCGUUCGGAUCUGCACUUCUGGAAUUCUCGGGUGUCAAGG	-0.217
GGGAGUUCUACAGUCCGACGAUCUCAAGUCCUGUGCUACACAUCGUAUGUACCGAAUCGGAAAGGUUUUUGGUUUGGAAAGUAUUAUGUUACGCCGUUCGGAUCUGCACUUCCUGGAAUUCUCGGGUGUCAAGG	-0.881
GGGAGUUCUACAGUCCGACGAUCUAACUUUAGAGGAGGAUCUGAUGGAUAUGGCAGUGGACGUGGAUUUGGGGAUGGCUAUAAUGAGUAUGGAGGAGGACCUGGAGGUGGCAAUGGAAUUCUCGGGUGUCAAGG	0.24
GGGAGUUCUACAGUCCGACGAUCUAACUUUAGAGGAGGAUCUGAUGGAUAUGGCAGUGGACGUGGAUUUGGGGAUGGCUAUAAUGGCUAUGGAGGAGGACCUGGAGGUGGCAAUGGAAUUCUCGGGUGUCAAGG	0.216
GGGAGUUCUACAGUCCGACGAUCGUCCUGUGCUACACAUCGUAUGUACCGAAUCAAACCCCCCCAAAUUUUUAAACCCAAAAAAGUAUUAUGUUACGCCGUUCGGAUCUGCACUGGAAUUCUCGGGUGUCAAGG	0.103
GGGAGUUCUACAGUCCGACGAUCUAACUUUAGAGGAGGAUCUGAUGGAUAUGGCAGUGGACGUGGAUUAGGGGAUGGCUAUAAUGGGUAUGGAGGAGGACCUGGAGGUGGCAAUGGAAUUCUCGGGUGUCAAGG	0.257
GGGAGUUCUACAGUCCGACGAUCCUGUGCUACACAUCGUAUGUACCGAAUCGGAAAAAAAGGGAAAAAAAGGGGAAAAAAAGGGGAAAGUAUUAUGUUACGCCGUUCGGAUCUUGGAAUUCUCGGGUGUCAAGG	-0.307
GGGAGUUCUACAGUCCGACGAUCAGUCCUGUGCUACACAUCGUAUGUACCGAAUCGGAAAAAGGAAAAAGGGAAAAAGGGGAAAGUAUUAUGUUACGCCGUUCGGAUCUGCACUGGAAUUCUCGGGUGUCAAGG	-0.463
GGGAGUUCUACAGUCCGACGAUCCAAGUCCUGUGCUACACAUCGUAUGUACCGAAUCGGGCCCGGGGCCCGGCCCGGGAAAGUAUUAUGUUACGCCGUUCGGAUCUGCACUUCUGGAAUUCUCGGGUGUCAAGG	-0.836

Block 3
Target: Interferon regulatory factor 7, full length, phosphomimetic (IRF7, Homo sapiens, UniProt Q92985, residues 1-503, S471D/S472D/S475D/S476D/S477D/S483D/S484D/S487D)
Sequence of UniProt Q92985 (whole entry, unmodified, looked up): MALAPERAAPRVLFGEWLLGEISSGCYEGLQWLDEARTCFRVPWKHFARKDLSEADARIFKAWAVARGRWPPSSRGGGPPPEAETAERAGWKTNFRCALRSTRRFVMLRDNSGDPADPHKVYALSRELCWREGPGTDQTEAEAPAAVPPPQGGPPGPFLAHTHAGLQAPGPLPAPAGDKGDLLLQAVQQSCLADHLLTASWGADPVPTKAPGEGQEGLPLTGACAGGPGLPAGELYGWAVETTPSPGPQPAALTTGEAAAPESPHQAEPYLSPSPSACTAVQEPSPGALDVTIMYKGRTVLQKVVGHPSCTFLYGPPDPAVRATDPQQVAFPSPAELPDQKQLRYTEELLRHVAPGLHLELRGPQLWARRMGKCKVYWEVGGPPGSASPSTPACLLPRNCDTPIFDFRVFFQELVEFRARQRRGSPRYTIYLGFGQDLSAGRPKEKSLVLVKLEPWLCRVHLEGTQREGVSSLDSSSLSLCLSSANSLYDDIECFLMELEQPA
Technique: protein-binding microarray
Form: double-stranded DNA, one strand shown
Sample: in vitro
Concentration: 2200 nM top
Setting: 60-bp whole probe
Together with: salmon DNA 0.4 mg/ml
Relative to: random background probes
Reading: higher = stronger binding
Constant ends, left off below: GCCTAGCAC … GTCTTGATTCGCTTGACGCTGCTG
Oligonucleotide	fitted relative affinity
TTAGGTCTCCGACTGGGTTAGTGCTAG	-0.627 z-score
GACGATCTAAGACTGGAGACGTGCTAG	-0.247 z-score
TTAGGCCTGGGTCTCGGTTAGTGCTAG	-0.661 z-score
AACGGTTTCCTTTCCCTGACGTGCTAG	4.78 z-score
GTCCACTCCAGACCGTTTGCGTGCTAG	1.06 z-score
TTAGGTATCGGGACTGGCTTAGTGCTA	-0.228 z-score
ATTTATTTACTCTCTACATGGGTGCTA	1.02 z-score
GACGGTCTCCTTATCGTGACGTGCTAG	0.667 z-score
TTAGGCTCCCTTTTCCTTTAGTGCTAG	1.62 z-score
TATCCTATCAGTTTAATATCGTGCTAG	1.21 z-score
TCATTTAGTAGTTTCTAACTGTGCTAG	1.51 z-score
TTAGATCTGAGTATCGATTAGTGCTAG	-0.000668 z-score
TTAGGTCTGGGACTGGGTTAGTGCTAG	-0.834 z-score
TTAGGTAACGGGTTTCGGTTAGTGCTA	3.03 z-score
TTAGGTCTCGGTCTCGGTCAGTGCTAG	0.323 z-score
TCAATTTCAGTTTTCTTACTGTGCTAG	3.39 z-score

Block 4
Target: Sal-like protein 4, full length isoform B (SALL4, Homo sapiens, UniProt Q9UJQ4-2, residues 1-616)
Technique: universal PBM
Form: double-stranded DNA, one strand shown
Sample: in vitro
Concentration: not given
Setting: 8-mer, flanks averaged, mean of replicates
Reading: higher = stronger binding
Oligonucleotide	E-score
GGTGAAAA	0.0211
CAATGTGC	0.0507
GGACCCCA	-0.298
ATTGGCTG	-0.0764
CCCTCGAC	-0.253
AGAGCCAT	-0.075
ACCGTGCA	-0.129
CAAGATTG	0.101
CGCAAGAC	-0.0658
ACGAACGA	0.0132
CGGGACAG	-0.175
CAGCAGAG	-0.272
AGATCTGA	-0.11
GCAGACAC	-0.0888
AGTCTTAG	-0.178
CTTGTGGC	-0.151
ACTAACAG	0.102
GCCTCTGA	-0.181
CCCTTCAG	-0.146
GTCAGAGA	-0.0526
ACCGGTGA	-0.17
ACGGGAGC	-0.27
GACGCCGA	-0.143
AAAGGTGC	-0.0394

For quick reference, copied from above (block 4):
Oligonucleotide	E-score
ATTGGCTG	-0.0764
CCCTTCAG	-0.146
ACCGTGCA	-0.129
ACGAACGA	0.0132
CTTGTGGC	-0.151
AAAGGTGC	-0.0394
ACCGGTGA	-0.17
GACGCCGA	-0.143
GGACCCCA	-0.298
AGAGCCAT	-0.075
ACTAACAG	0.102
